Assay results gathered from unrelated publications.
A part holds a random share of what one study measured.

Set 1
Target: RING finger protein unkempt homolog, zinc fingers 1-6, GST-SBP tag (UNK, Homo sapiens, UniProt Q9C0B0, residues 30-357)
Technique: RNA Bind-n-Seq
Molecule type: RNA
Sample: in vitro
Concentration: not given
Setting: RNA with constant flanks, human-mouse chimeric sites, ends assumed
Relative to: input RNA pool
Reading: higher = stronger binding
Endpoint: bound/input enrichment
All sequences stand within: GGGAGUUCUACAGUCCGACGAUC … CAACAGAGGAUUGAGCAUCA
Construct (chain): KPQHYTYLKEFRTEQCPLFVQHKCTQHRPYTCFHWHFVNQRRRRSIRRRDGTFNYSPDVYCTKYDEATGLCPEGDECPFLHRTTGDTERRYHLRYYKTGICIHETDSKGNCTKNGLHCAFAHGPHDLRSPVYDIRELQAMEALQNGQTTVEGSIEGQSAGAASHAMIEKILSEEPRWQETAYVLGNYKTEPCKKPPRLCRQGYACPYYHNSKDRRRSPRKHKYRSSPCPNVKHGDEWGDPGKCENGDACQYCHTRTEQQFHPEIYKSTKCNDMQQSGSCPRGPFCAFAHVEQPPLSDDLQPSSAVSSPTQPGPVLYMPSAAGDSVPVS
CACAGAGGCACCACCCCCCCCUCCUCCUUUCCACACCUGCAAACUCUUUUACUUGGGCUGAAUAUUUAGUGUAAUUACAUCUCAGCUUUGAGGGCUCCUGUGGCAAAAUACCCGGAUAAA: 1.13 ratio
GUCAACAGCUGCCUCAAUCCCAUUCUCUACGCCUUCCUGGAUGAGAACUUCAAGGCCUGCUUCCGCAAGUUCUGCUGUGCAUCUGCCCUGCGCCGGGACGUGCAGGUGUCUGACCGCGUG: 0.453 ratio
UAAGUUAUUUUGUACAGCUUUGUAAAUUCUUAACAUUUUUAUAUUGCCAUGUUUAUUUUGUUUGGGUAAUUUGGUUCAUUAAGUACAAAACCAAAUAACAUCUUUCAUUUUUCAGUAAUU: 0.857 ratio
CUCGGCACCGGCACGCUUUACAUCGCUGAGAGCCGCCUGUCCUGGUUAGAUGGUUCGGGAUUAGGAUUCUCACUGGAAUACCCCACCAUUAGUUUACAUGCGGUGUCCAGGGACCGAAAC: 0.575 ratio
GCGAACAGGACUACAGAAAUGCUGGUAAUUUCAGUCACUUGCUGAUGACUUCUGAUGUCCCAGCAAAUGUUGGCAUUGUUGACUGCUCUGUGAAGACUUCUGAGGACCCACGUCUAAGGU: 0.0747 ratio
CGCUGGCGUUGAACUGUGGACUCUGAUGGCCUCCAUCUCUCAGGCACGUGUGCCUUCUCUUAGUCCCUGUUUUCGGGAUGUUAUGAACAGUAUCAUGGUGGUUUGAAAGCACCAGCUUUG: 0.104 ratio
AAUUUCCGCAACUGUUUUGUAGCAAGACACAUCAGACUUACAGAGCACCUGGCCACAUUCUAGGUUUGUGUUAUUUCUCAGCUAUGGAUAUGAUCAAAUGAGAACACUGCUUAACUAAUG: 0.159 ratio
GCAAAGGAUGAUGAGGCAGCUGCAGUUGCCCUUUCCUCUCUCGUUCAUGCUUUGGAUGAGUUAAACAUGGUCGCCAUCGUCCGAUAUGCUUAUGACAAAAGAUCUAAUCCUCAAGUUGGU: 0.196 ratio

Set 2
Target: Interferon regulatory factor 7, full length, phosphomimetic (IRF7, Homo sapiens, UniProt Q92985, residues 1-503, S471D/S472D/S475D/S476D/S477D/S483D/S484D/S487D)
Technique: protein-binding microarray
Molecule type: double-stranded DNA, one strand shown
Sample: in vitro
Concentration: 2200 nM top
Setting: 60-bp whole probe
Together with: salmon DNA 0.4 mg/ml
Relative to: random background probes
Reading: higher = stronger binding
Endpoint: fitted relative affinity
All sequences stand within: GCCTAGCAC … GTCTTGATTCGCTTGACGCTGCTG
Residues (chain): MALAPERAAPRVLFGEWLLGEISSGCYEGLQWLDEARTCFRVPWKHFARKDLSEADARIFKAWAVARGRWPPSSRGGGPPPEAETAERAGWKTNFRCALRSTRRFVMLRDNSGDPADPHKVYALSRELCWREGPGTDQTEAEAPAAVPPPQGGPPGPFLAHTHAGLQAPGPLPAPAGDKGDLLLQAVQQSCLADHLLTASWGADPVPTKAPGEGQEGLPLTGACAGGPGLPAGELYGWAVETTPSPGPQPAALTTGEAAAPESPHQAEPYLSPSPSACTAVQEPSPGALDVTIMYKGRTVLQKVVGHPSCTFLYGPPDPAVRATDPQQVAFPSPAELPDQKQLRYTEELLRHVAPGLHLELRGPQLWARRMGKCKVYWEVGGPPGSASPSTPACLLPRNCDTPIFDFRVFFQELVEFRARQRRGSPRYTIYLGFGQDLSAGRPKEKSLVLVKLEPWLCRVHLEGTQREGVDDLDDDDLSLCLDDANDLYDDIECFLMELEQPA
CTCACCATCATCCTCACTGCGTGCTAG: 1.32 z-score
CACGGTATCCTTTTCCTGACGTGCTAG: 1.53 z-score
TCATGTCTCCCCCATCTTACTGTGCTA: 1.06 z-score
TCACCTTTTTTGTTGTTACTGTGCTAG: 2.24 z-score
TTAGGACTCCTTATCCTTTAGTGCTAG: 0.778 z-score
GACGGACTGCTTATCGTGACGTGCTAG: 0.209 z-score
GACGGTTTCTGTCTCGGGACGTGCTAG: 2.73 z-score
TTAGTTTTCGGGTTTCGATTAGTGCTA: 10.1 z-score
GACGATCTCAGTCGCGAGACGTGCTAG: -0.115 z-score
CACGAACTGAGTTTCGAGACGTGCTAG: 2.4 z-score
GACGGTTTCGGGTATCTGGACGTGCTA: 5.96 z-score
TACTTTCTACGTCTGATTTTGTGCTAG: 3.71 z-score
TCAAAATGATTGGTTGAACTGTGCTAG: -0.41 z-score
GACGGTCTGGGGACTGGGGACGTGCTA: -0.459 z-score
GACGGACTGGGGTTCGGGACGTGCTAG: -0.757 z-score
TCACCTCTGTTTTGAGCACTGTGCTAG: 1.78 z-score
TCAATTATATATATCATACTGTGCTAG: 0.711 z-score
CTCGCTATGTTGTCCAGGCTGGTGCTA: 0.645 z-score
TCACTTCCCAATTCTCTTACTGTGCTA: 3.4 z-score

Set 3
Target: RNA binding protein fox-1 homolog 2, RRM domain, GST-SBP tag (RBFOX2, Homo sapiens, UniProt O43251-10, residues 100-194)
Technique: RNA Bind-n-Seq
Molecule type: RNA
Sample: in vitro
Concentration: 365 nM
Setting: natural RNA segment, single round, ends assumed
Relative to: no-protein control
Reading: higher = stronger binding
Endpoint: RBNS enrichment (R)
All sequences stand within: GGGAGUUCUACAGUCCGACGAUC … UGGAAUUCUCGGGUGCCAA
Target sequence (chain): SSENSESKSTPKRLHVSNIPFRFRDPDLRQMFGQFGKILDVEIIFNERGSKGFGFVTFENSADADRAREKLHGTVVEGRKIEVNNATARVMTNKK
GUUUUAAUGUGGUGAGCAGCCUAAGAACUUAAAGGUGUACGGUAUUUUGUUUAUAAAGAUGUUCAGAUUUCUUAGUAACUGUAUUAAAUGGUUAAUUAAAACUGUGAAUU: 0.863
UCAGUUCUAGGAAGCAGGAGAGCUCGCUUGUGCAGUGUCCCACACAGCAGGGCUGAGGGGCCUAGGGCUGCCUGCUCUCCAAAGCAGAUGACCCAUGUGCGGCAGGGACU: 0.419
UUUAUACUUUGUUCCUCCUGCCCAACAACUGUCAGUACUGAGAUCUGAAAUUAAAAUGACUUGUUUGCUUGAGUGUGUUGAUUUAUAAACAGCAAUGGUGGUGGGGUACA: 1.99
ACAUUUGCAAGUCAGGGGCAUUUUCCUUGACCCUUGACUGAUGCUAUGCGGAGACUGAUACAUUUUCUUAAUGGACAAUGUUCAAGCCAGGUACCCAUGCUUGAUCUGUC: 0.217
GGGGGACCUCAGCCUCUAUUCGCAACUCAUAAUCCGUAGACUACAAGAUGAAAUCUCAAUAAAUUAUUUUUGAGUUUAUUAAAGAUUGACAUUUUAAGUACAACUUUUAA: 0.322
GAAUGUUUUAGAGAAGGAAAUUCAAAAAAUGUUGUAACUGAAAGCACUGUUGAAUAUGGGUAUCGGCUUUCUUUUUCACUUUGACUCUUAACAUUAUCAGUCAACUUCCA: 0.642
AUGUAUUCUCUUCUACAAUACAACACAUUGAAACUGUAUUUACUUGUUAUGUUGUAAUAUUUUGCUGCUGAAUUUGGGGCUACUUAUAUUCUGCAGAAAAUUAAUUGAAA: 0.599
AGAAAAAAAUGUCUUCUGCAAAUUUUCUAGUAUAACAGAAAUUUUUGUAGAUGAAAAAAAUCAUUAUGUUUAGAGGUCUAAUGCUAUGUUUUCAUAUUACAGAGUGAAUU: 0.519

Set 4
Target: Histone acetyltransferase KAT6A, winged helix 2, GST fusion (KAT6A, Homo sapiens, UniProt Q92794, residues 85-181)
Technique: protein binding microarray
Molecule type: double-stranded DNA, one strand shown
Sample: in vitro
Concentration: not given
Setting: 8-mer, flanks averaged, mean of 2 arrays, mostly near background
Relative to: not given
Reading: higher = stronger binding
Endpoint: E-score
Residues (chain): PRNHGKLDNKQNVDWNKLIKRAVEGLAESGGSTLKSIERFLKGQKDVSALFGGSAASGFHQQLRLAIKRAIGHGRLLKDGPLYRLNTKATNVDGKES
GGATGGCA: 0.0724
AACAGGAG: -0.206
GACACCCA: -0.0693
GACGCCTC: 0.0117
CAGCGTGC: 0.188
ACATCTTG: -0.169
CTTTAAGA: 0.156
GCTTAGCC: 0.0692
CGAATGAC: 0.141
ACGAAAGA: 0.00364
TCGCATCA: 0.0922
CCTCGATC: -0.00563
AACCGGGG: -0.0749
ACCCTGTG: 0.0181
CGCGGAAG: 0.0445
AAAGTGAG: 0.0653

Repeated from above (set 4):
TCGCATCA: 0.0922
CCTCGATC: -0.00563
AACCGGGG: -0.0749
ACCCTGTG: 0.0181
CGCGGAAG: 0.0445
